Experimental data collected from several papers.
Parts stem from different laboratories: compare values within a part only. Substitutions count along the parent as printed.

Set 1
Target: CEBPD, bZIP domain (human)
Technique: DHFR protein complementation
Sample: yeast
Setting: single substitutions, most at no-binding floor
Baseline: wild-type JUN-FOS pair
Direction: higher = stronger binding
Measurement: binding fitness
Parent: JUN, bZIP domain (human); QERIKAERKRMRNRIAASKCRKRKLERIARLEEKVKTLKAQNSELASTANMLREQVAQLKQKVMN; partner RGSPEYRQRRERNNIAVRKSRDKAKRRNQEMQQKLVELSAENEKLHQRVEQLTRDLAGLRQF
N42Y: -1.48 natural log
I28C: -1.34 natural log
K36E: -1.38 natural log
L31C: -1.45 natural log
R30L: -1.36 natural log
E54D: -1.46 natural log
A57N: -1.36 natural log
I28M: -1.32 natural log
T37V: -1.39 natural log
R53H: -1.33 natural log
S47Y: -1.3 natural log
E54N: -1.45 natural log
L38Q: -1.57 natural log
S47G: -1.3 natural log
V35N: -1.39 natural log
K39N: -1.46 natural log
S47R: -1.28 natural log
T37Q: -1.24 natural log
S47C: -1.32 natural log
L38M: -1.49 natural log
L52H: -1.48 natural log

Set 2
Target: Prothrombin, mature alpha-thrombin (F2, Homo sapiens, UniProt P00734)
Technique: aptamer microarray, sandwich
Form: DNA with 2'F-ANA
Sample: in vitro
Concentration: 200 nM
Setting: whole 15-mer aptamer, many near background
Together with: Cy3 exosite-II aptamer, 400 nM
Direction: higher = stronger binding
Measurement: mean fluorescence intensity
Strand: GGTTGGTGTGGTTGG
2'F-ANA at 3 7 8 9 11 13: 1070 a.u.
2'F-ANA at 2 4 5 11 13 15: 49.8 a.u.
2'F-ANA at 2 7 10 11 13 14 15: 80.9 a.u.
2'F-ANA at 1 3 4 7 8 11 12 14 15: 101 a.u.
2'F-ANA at 5 10: 45.4 a.u.
2'F-ANA at 1 2 6 11 12: 255 a.u.
2'F-ANA at 3 4 5 6 7 8 11 12 14: 52.1 a.u.
2'F-ANA at 3 4 6 7 10 12: 375 a.u.
2'F-ANA at 1 2 6 7 10 11 12: 63.5 a.u.
2'F-ANA at 1 3 8 9 10 12 13 15: 112 a.u.
2'F-ANA at 2 3 4 7 8 9 11: 613 a.u.
2'F-ANA at 1 5 6 8 9 10 11 13 14 15: 59.3 a.u.
2'F-ANA at 3 6 7 9 12 15: 1150 a.u.
2'F-ANA at 1 4 6 8 9 14 15: 51.6 a.u.
2'F-ANA at 1 3 4 6 10 11 15: 58.9 a.u.
2'F-ANA at 5 6 9 12 13: 114 a.u.
2'F-ANA at 2 6 7 9 10 13 14: 112 a.u.
2'F-ANA at 1 8 11 13 15: 194 a.u.
2'F-ANA at 3 5 8 10 12 15: 63.3 a.u.
2'F-ANA at 2 3 4 6 7 8 9 11: 547 a.u.
2'F-ANA at 3 4 5 6 7 8 10 11: 51.6 a.u.
2'F-ANA at 3 4 6 8 9 15: 565 a.u.
2'F-ANA at 1 2 4 5 6 7 8 10 12 13 14 15: 51.2 a.u.

Set 3
Target: RNA binding protein fox-1 homolog 2, RRM domain, GST-SBP tag (RBFOX2, Homo sapiens, UniProt O43251-10, residues 100-194)
Technique: RNA Bind-n-Seq
Form: RNA
Sample: in vitro
Concentration: 365 nM
Setting: natural RNA segment, single round, ends assumed
Baseline: no-protein control
Direction: higher = stronger binding
Measurement: RBNS enrichment (R)
All sequences stand within: GGGAGUUCUACAGUCCGACGAUC … UGGAAUUCUCGGGUGCCAA
Construct (chain): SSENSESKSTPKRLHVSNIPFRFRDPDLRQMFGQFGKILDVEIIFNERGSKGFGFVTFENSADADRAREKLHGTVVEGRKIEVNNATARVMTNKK
CAAAGAUCUGGAAUGGGGGCCACCUUUAUAUUUUAAUACUCAAGUCCUGUGCUCCUUUUGGCCACUUUAAAAAGUCUUCCCUCACCUUGGAUAAAUAGGAUUCAGAAAGC: 0.379
AGGACCCCCGGGGCUGCAGCCUCCUCUUUCUGUCUCUGAUCAGAGCCGACACCAGACGUGAUUAGCAGGCGCAGCAAAUUCAAUUUGUUAAAUGAAAUUGUAUUUUGCCC: 0.403
CUUCUUUUUAAUGGUAAAUAUUCUUGUUCUUCAACAUUUUUCUUUGGUUCUUUUUUCCUUUUUUAGGAAAAACAAAACAACAGACUUCAUCCUUAGGUUUUCUCAAGAUU: 0.642
AUUUUAUCUAAAUGUCUCCUUUCAUCUGUGGGAAAGCUAUAGCUGAGUGUCUUUAGCCCCUGCCCUACUUUUCCCUCUCUGACUUUUUUCCCAGGUAGCUUAGUGUUUAA: 0.411
CCUGAGAAUAGACAGGAGAGGGUCAGAAGCAGACGUCCUCCUUUUCUUGUGAUAACCACGCUACUUGCCUUUGCUAGAGCUCUCUGUGGCCAACCCUGGGAAAUGCUAAU: 0.659
UUUCUCCUGGAGCAUGUGCAGAGAGUUUGGCAACGUUCGCUCUCUUGACCAGACCCCUUCUCCCUGACCUGGCUCUUCCAGCCAGGGCACGAGCCCUCCUUCUAUACCUG: 8.55
UCUAUUGUAUUGUCUCACACAUGCUCUAUAUAAAUGGGAAAUGUUGAUUUUUUUGAUGAUAGACUAUAUACACAGGCUGUUCCCGUUAUGUAAGUCAGUUCUUCAGGCUC: 0.334
AAAUGCUAGCUUGGACAACUGAAAAGUCACAUCACAGCUGGCAUUCUGGGGGCUACCAAAACACCCCUUCUGGAGUAGAAGCUGCUGGAAGGCAGGCCUGAGCCAUUCAC: 0.206
CCAUUUUAAGAAGAUUCCAUUUCGGAAGAAGAUGCCGAAAUUUACAAAUUUCGCCAUACUCAGUGGGACUCUCAAGUAGACUUUCAUAGUUGCAGUCACUUCAGGUCUCU: 0.308
AAUUGUACUGGCUGUUGACCACCAGACACCUGACUGCAAAUAUCUUUUCUUGUAUUCCCAUAUUUCUAGACAAUGAUUUUUGUAAGACAAUAAAUUUAUUCAUUAUAGAU: 0.253
CAGAAGGGCAAUGAAAACAUUGGACAUGACCAUGAGUGCUUCCUUUCCUUAACUCUAGGUUUGUAGUCUGUUUUAAAUUAGGAUUAGUUCCUGCAUUCUGAAAUACAUUG: 0.43
AUCUCCAGCAGUCUUGGUGCUGCUGUGCCCCGGGCUCUGGUCUGGCCGGGUGUGAGGGAAGUCAGACCUUGCAGGGCCCCAGGCCGCAGAAGAUUGCAUUUCACAGUCGU: 0.746

Set 4
Target: Fragile X messenger ribonucleoprotein 1, C-terminal low-complexity region (Fmr1, Mus musculus, UniProt P35922)
Technique: RNA Bind-n-Seq
Form: RNA
Sample: in vitro
Concentration: 200 nM
Setting: whole 134-nt RNA, ends assumed
Together with: 150 mM KCl
Baseline: input library
Direction: higher = stronger binding
Measurement: log2 enrichment
All sequences stand within: GGGAGUUCUACAGUCCGACGAUC … UGGAAUUCUCGGGUGUCAAGG
GCAGGAAGUAAAAACAAAUGGAAAUGCUUCGGAUAGUGGCAGGGGUGAAAGUUGCUAAGGAAAGGGUGGGAUGGGAGUGGGUAAAGAGUU: 0.35
AGUCCUGUGCUACACAUCGUAUGUACCGAAUCGGAAAAAGGGGAAAAAGGGAAAAAGGAAAGUAUUAUGUUACGCCGUUCGGAUCUGCAC: -0.441
UGGGCGGUGGAUUUUGUUUAUUUUUUUAGCUCAUUUCCAGGGGUGGGAAUUUUUUUUUAAUAUGUGUCAUGAAUAAAGUUGUUUUUGAAA: 0.333
CCAACUCCUAUAAUUCCCUAUCUUUUAGUUUUAGUUGCAGAAACAUUUUGUGGUCAUUAAGCAUUGGGUGGGUAAAUUCAACCACUGUAA: 0.479
CACAGACAACACGCACCCACACAGACACAGAGGGAAGGGGUUGGGAUGGGGACAGGGUGCACAGUAGGGCGGGGUAGGACCCCAGCCCCU: 1.26
UUCCUCAAGUCCUGUGCUACACAUCGUAUGUACCGAAUCGGAGGAGGUGGAAAGUAUUAUGUUACGCCGUUCGGAUCUGCACUUCCAGCA: -0.912
ACCAUGCAGGUGGGCAUCUUUGGGAAGUGGGGUAAGGGGGGGAUAGGGAGGGGGGUAACACUUUGGGAACAGGUGGUCCCAGGUCGUUUC: 0.845
UUCCCUCUGUUUUAUUUUUCCCCCGUGUGUCCCUACUAUGGUCAGAAAGCCUGUUGUGUCCACCAUCUCCAAAGGAGGUUACCUGCAGGG: 0.0113
ACCAUGCAGGUGGGCAUCUUUGGGAAGUGGGGCAAGGGGGGGAUAGGGAGGGGGGUAACACUUUGGGAACAGGUGGUCCCAGGGCGUUUC: 0.69
CAAGUCCUGUGCUACACAUCGUAUGUACCGAAUCGGGAAAGGGAAAGGGGAAAGGGAAAGUAUUAUGUUACGCCGUUCGGAUCUGCACUU: 0.294
AGUCCUGUGCUACACAUCGUAUGUACCGAAUCGGGGAGGGGUGGGGUUUUUUUGGGGAAAGUAUUAUGUUACGCCGUUCGGAUCUGCACU: 1.02
CAAGUCCUGUGCUACACAUCGUAUGUACCGAAUCGGAAAAAGGAAAAAAAGGUGGAAAGUAUUAUGUUACGCCGUUCGGAUCUGCACUUC: -0.84
UGGCCCUGGUGGCAUGCGGGGAGGAAGAGGUGUCCUCAUGGAUCGUGGUGGUCCCGGUGGAAUGUUCAGAGGUGGCCGUGGUGGAGACAG: -0.0833
UCCUGUGCUACACAUCGUAUGUACCGAAUCGGGGUUUUUGGGGAGGGGAAAAAAAGGGGAAAGUAUUAUGUUACGCCGUUCGGAUCUGCA: 0.454

Set 5
Target: Histone acetyltransferase KAT6A, both winged helices, GST fusion (KAT6A, Homo sapiens, UniProt Q92794, residues 1-181)
Technique: protein binding microarray
Form: double-stranded DNA, one strand shown
Sample: in vitro
Concentration: not given
Setting: 8-mer, flanks averaged, mean of 2 arrays, mostly near background
Baseline: not given
Direction: higher = stronger binding
Measurement: E-score
Construct (chain): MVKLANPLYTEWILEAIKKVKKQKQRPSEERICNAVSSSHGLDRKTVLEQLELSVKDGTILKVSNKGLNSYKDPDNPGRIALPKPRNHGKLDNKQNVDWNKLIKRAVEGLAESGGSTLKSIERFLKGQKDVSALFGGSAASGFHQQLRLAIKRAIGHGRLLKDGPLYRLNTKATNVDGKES
AATGCAGG: -0.122
ACGGTAAG: 0.166
GGGATAAA: -0.0338
GATAACCA: -0.148
CCCGCGTA: 0.213
GGACGTTA: 0.0544
AAATACTA: -0.11
AGAGACAC: -0.173
AGGGCACG: -0.045
GATCCTTA: -0.174
CCGTCTCG: 0.193
CGTCTAAC: 0.153
AGCTGCCT: -0.179
GTGCCGCA: 0.172
TGTTCGAA: 0.0129
ACGTGAGC: -0.02

Other studies, line by line
PhoQ, residues 284 288 289 292 302 303 SIHMAM
fold induction (PhoP, residues 12 14 15 18 19 LQHIR (Escherichia coli, UniProt P23836); Sort-seq, item: YFP reporter; E. coli; PhoQ-PhoP variant library, together with: 10 µM Mg2+; baseline: high Mg2+ state, higher = stronger signaling): 14.5
